Results gathered from unrelated publications.
Lines come from different studies, so protocols differ. Numbers after ± are the reported error.
Route: oral

SMILES	host	matrix	dose	time	notes	with	AUC(0-t) [ng·h/mL]
CNc1nc(Nc2ccc(-n3cnc(C)n3)c(OC)c2)nc2c1CC[C@H]2c1ccc(F)cc1	human		100 mg once daily	day 28	multiple ascending dose, geometric mean		9080
CC(=O)c1c(C)c2cnc(Nc3ccc(N4CCNCC4)cn3)nc2n(C2CCCC2)c1=O	human		95 mg/m^2 repeated doses	day 21			2290
C=C(C)[C@@H]1CC[C@]2(NCCN3CCS(=O)(=O)CC3)CC[C@]3(C)[C@H](CC[C@@H]4[C@@]5(C)CC=C(C6=CC[C@@](CF)(C(=O)O)CC6)C(C)(C)[C@@H]5CC[C@]43C)[C@@H]12	healthy human volunteers	plasma	200 mg		tablet, fasted state, mean		13500
C=CC(=O)Nc1cc(Nc2ncc(C(=O)OC(C)C)c(-c3cn(C)c4ccccc34)n2)c(OC)cc1N(C)CCN(C)C	human, fasted		160 mg single dose		arithmetic mean		1100
CC(C)NC[C@@H](C(=O)N1CCN(c2ncnc3c2[C@H](C)C[C@H]3O)CC1)c1ccc(Cl)cc1	human, Mild hepatic function	plasma	100 mg single dose		NCI classification, geometric mean		414
Cc1ccc(NC(=O)c2ccc(CN3CCN(C)CC3)cc2)cc1Nc1nccc(-c2cncc(-c3oncc3C)c2)n1	older healthy human adults	plasma	37.5 mg single dose		fed, mean		30400
COc1cccc(-c2ccc(NC(=O)C3=C(C(=O)O)CCC3)c(F)c2)c1	human, male	plasma	50 mg once daily	day 13	geometric mean, not pre-dosed		310000
Cc1[nH]c(/C=C2\C(=O)Nc3ccc(F)cc32)c(C)c1C(=O)N[C@H]1CCN(C(=O)N(C)C)C1	human	plasma	200 mg once daily multiple dosing			everolimus 5 mg	6710 ± 5320
Cc1[nH]c(/C=C2\C(=O)Nc3ccccc32)c(C)c1CCC(=O)O	human patients		500 mg/m^2 twice daily		after meal, dose 55		34100 ± 12400
CC(C)[C@@H](CS(=O)(=O)C(C)C)N1C(=O)[C@@](C)(CC(=O)O)C[C@H](c2cccc(Cl)c2)[C@H]1c1ccc(Cl)cc1	human	plasma	60 mg		new tablet, fasted, geometric LS mean		2860

Repeated from above:
SMILES	host	matrix	dose	time	notes	with	AUC(0-t) [ng·h/mL]
CNc1nc(Nc2ccc(-n3cnc(C)n3)c(OC)c2)nc2c1CC[C@H]2c1ccc(F)cc1	human		100 mg once daily	day 28	multiple ascending dose, geometric mean		9080
CC(=O)c1c(C)c2cnc(Nc3ccc(N4CCNCC4)cn3)nc2n(C2CCCC2)c1=O	human		95 mg/m^2 repeated doses	day 21			2290
